Results from different studies.
Protocols differ between the studies behind these lines. Values joined by “and” are separate records of one study, mostly repeats; a detail may differ. Numbers after ± are the reported error.
rep main protease: Replicase polyprotein 1ab, main protease (rep, Severe acute respiratory syndrome coronavirus 2, UniProt P0DTD1)
rep papain-like protease: Replicase polyprotein 1ab, papain-like protease (rep, Severe acute respiratory syndrome coronavirus 2, UniProt P0DTD1)

| Structure (SMILES) | target | assay | system | conditions | inhibition |
| --- | --- | --- | --- | --- | --- |
| CCOc1cc(/C=N/NC(=O)COCC(=O)N/N=C/c2ccc(O)c(OCC)c2)ccc1O | rep main protease | enzyme activity, inhibitor |  | 100 µg/mL | 0% |
| O=c1c2ccccc2[se]n1-c1ccncc1 | rep main protease | enzyme activity, inhibitor |  | 0.3 µM | 66% |
| O=C(O[C@@H]1Cc2c(O)cc(O)cc2O[C@@H]1c1ccc(O)c(O)c1)c1cc(O)c(O)c(O)c1 | rep main protease | intracellular protease activity | HEK293T | 100 µM | 79.7 ± 1.7% |
| O=C(O)C[C@H](NC(=O)c1ccccc1[Se][Se]c1ccccc1C(=O)N[C@@H](CC(=O)O)C(=O)O)C(=O)O | rep main protease | enzyme activity, inhibitor |  | 40 µM | 97.8% |
| COc1ccc(-c2cc(=O)c3c(O)cc(O)cc3o2)cc1Oc1ccc(-c2cc(=O)c3c(O)cc(O)cc3o2)cc1 | rep papain-like protease | enzyme activity, inhibitor |  | 10 µM | 65.6 to 98% |
| CC(=O)Nc1ccc(-c2cnc(N3C(=O)CSC3c3cc4ccccc4nc3Cl)s2)cc1 (stereo not drawn) | rep papain-like protease | enzyme activity, inhibitor |  | 10 µM | 19.4% |
| O=C(CCl)N1N=C(c2cccs2)CC1c1cccs1 (stereo not drawn) | rep main protease | enzyme activity, inhibitor, fluorescence |  | 50 µM, pH 7.2 | 103% |
| C[C@](C(=O)NC1CCC(F)(F)CC1)(c1cncnc1)N(C(=O)[C@H](F)Cl)c1ccc(OC(F)(F)F)cc1 | rep main protease | enzyme activity, inhibitor |  | 0.309 µM | 97.5% |
| COc1cccc2c1C(=O)C=CC2=O | rep main protease | enzyme activity, inhibitor |  | 10 µM | 95.9% |
| Nc1cccc(-n2[se]c3ccccc3c2=O)c1 | rep main protease | enzyme activity, inhibitor |  | 0.3 µM | 68.7% |
| c1ccc(C[Se][Se]Cc2ccccc2)cc1 | rep main protease | enzyme activity, inhibitor |  | 40 µM | 76.2% and 74% |
| C[C@](C(=O)NC1CCOCC1)(c1cncnc1)N(C(=O)[C@H](F)Cl)c1ccc(OC(F)(F)Cl)cc1 | rep main protease | enzyme activity, inhibitor |  | 0.37 µM | 99% |
| O=c1c2ccccc2[se]n1-c1ccnc(Cl)c1 | rep main protease | enzyme activity, inhibitor |  | 0.3 µM | 74% |
| COc1ccc2[nH]cc(CCN/C(=N\C(=O)CSc3nnc(N)s3)Nc3nc(C)cc(C)n3)c2c1 | rep papain-like protease | enzyme activity, inhibitor |  | 100 µg/mL | 0% |
| COc1cc(Oc2c(O)cc(C)cc2OC)c(C(=O)O)c(C)c1O | rep main protease | enzyme activity, FRET |  | 10 µM | 71.1 ± 1.7% |
| O=c1c2ccccc2sn1-c1ccccc1 | rep main protease | enzyme activity, inhibitor |  | 0.1 µM | 28.2% |
| O=C(NC1CCN(c2ncnc3[nH]cnc23)CC1)c1cccc(NS(=O)(=O)c2ccc(C(F)(F)F)cc2)c1 | Replicase polyprotein 1ab, nsp14 with nsp10 (rep, Severe acute respiratory syndrome coronavirus 2, UniProt P0DTD1) | exonuclease activity | SARS-CoV-2 | 0.7812 µM | 10.3% |
| CC(NC(=O)c1ccccc1[Se][Se]c1ccccc1C(=O)NC(C)C(=O)O)C(=O)O (stereo not drawn) | rep main protease | enzyme activity, inhibitor |  | 40 µM, mean of repeats | 103% |
| O=C(/C=C/c1ccc(Cl)cc1)OCC(=O)c1ccc(Br)cc1 | rep main protease | enzyme activity, inhibitor |  | 100 µM | 100% |
| COC(=O)c1cc2c(=O)n3ccccc3nc2n1Cc1ccccc1 | rep main protease | enzyme activity, inhibitor |  | 10 µM | 18% |
| O=C(NC1CCC(F)(F)CC1)C(c1cncnc1)N(C(=O)C(F)Cl)c1ccc(-c2cncs2)cc1 (stereo not drawn) | rep main protease | enzyme activity, inhibitor |  | 3.8 nM | 8.86% |
| CC(C)[C@@H]1CC[C@@H](C)C[C@H]1n1[se]c2ccccc2c1=O | rep main protease | enzyme activity, inhibitor |  | 40 µM | 102% |
| O=C(NC1CCC(F)(F)CC1)C(c1cncnc1)N(C(=O)C(F)Cl)c1ccc(OC(F)(F)F)cc1 (stereo not drawn) | rep main protease | enzyme activity |  | 0.309 µM | 82.8% and 87% and 52.3% |
| CCOC(=O)Cn1[se]c2ccccc2c1=O | rep main protease | enzyme activity, inhibitor |  | 40 µM, mean of repeats | 104% |
| CC(=O)Nc1ccc(S(=O)(=O)NNc2ncnc3sccc23)cc1 | Replicase polyprotein 1ab, nsp3 macrodomain (rep, Severe acute respiratory syndrome coronavirus 2, UniProt P0DTD1) | ADP-ribosylhydrolase activity, gel-based |  | concentration not given | inhibited |
| CCOC(=O)CNC(=O)c1ccccc1[Se][Se]c1ccccc1C(=O)NCC(=O)OCC | rep main protease | enzyme activity, inhibitor |  | 40 µM | 107% and 104% |
| COc1ccc(C(=O)Nc2ccccc2C(=O)NC(C(=O)NNC(=O)c2ccccc2O)C(C)C)cc1 (stereo not drawn) | rep papain-like protease | enzyme activity, inhibitor |  | 100 µg/mL | 0% |

For quick reference, copied from above:
| Structure (SMILES) | target | assay | system | conditions | inhibition |
| --- | --- | --- | --- | --- | --- |
| COC(=O)c1cc2c(=O)n3ccccc3nc2n1Cc1ccccc1 | rep main protease | enzyme activity, inhibitor |  | 10 µM | 18% |
| O=C(NC1CCN(c2ncnc3[nH]cnc23)CC1)c1cccc(NS(=O)(=O)c2ccc(C(F)(F)F)cc2)c1 | Replicase polyprotein 1ab, nsp14 with nsp10 (rep, Severe acute respiratory syndrome coronavirus 2, UniProt P0DTD1) | exonuclease activity | SARS-CoV-2 | 0.7812 µM | 10.3% |
| CC(C)[C@@H]1CC[C@@H](C)C[C@H]1n1[se]c2ccccc2c1=O | rep main protease | enzyme activity, inhibitor |  | 40 µM | 102% |
| CC(=O)Nc1ccc(S(=O)(=O)NNc2ncnc3sccc23)cc1 | Replicase polyprotein 1ab, nsp3 macrodomain (rep, Severe acute respiratory syndrome coronavirus 2, UniProt P0DTD1) | ADP-ribosylhydrolase activity, gel-based |  | concentration not given | inhibited |
